Experimental data of several laboratories.
Numbered parts are unrelated; each lists some results of a single study.

Set 1
Target: RING finger protein unkempt homolog, zinc fingers 1-6, GST-SBP tag (UNK, Homo sapiens, UniProt Q9C0B0, residues 30-357)
Technique: RNA Bind-n-Seq
Form: RNA
Matrix: in vitro
Concentration: not given
Setting: RNA with constant flanks, human-mouse chimeric sites, ends assumed
Relative to: input RNA pool
Reading: higher = stronger binding
Constant ends, left off below: GGGAGUUCUACAGUCCGACGAUC … CAACAGAGGAUUGAGCAUCA
Construct (chain): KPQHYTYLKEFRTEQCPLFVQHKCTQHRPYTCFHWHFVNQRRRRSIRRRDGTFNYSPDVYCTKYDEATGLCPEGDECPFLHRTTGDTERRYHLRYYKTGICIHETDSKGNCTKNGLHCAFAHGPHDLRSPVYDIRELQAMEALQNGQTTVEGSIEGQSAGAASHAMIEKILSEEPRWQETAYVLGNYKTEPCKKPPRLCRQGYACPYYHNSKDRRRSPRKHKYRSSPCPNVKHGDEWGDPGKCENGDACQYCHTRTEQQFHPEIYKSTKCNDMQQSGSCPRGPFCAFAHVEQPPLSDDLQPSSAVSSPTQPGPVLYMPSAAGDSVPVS
Sequence	bound/input enrichment [ratio]
ACCUCCCCCUCCCGCCUGCUUUUUGAACCGCUUUUUGGAAAGUUUUUGGCGUUUCUUUUCCUUCCCCAUACAAAGUGGUUUUUACCACCCCCGCAAGGGUCUAUCGAAGGGCUUGACGGA	0.49
UGACAAGGGCACUGCAGAGCCAUGCCUUUCCUUGACAUACAGAAAAAGCUGGGCAUCAACAUAGAUCGAUGGUUGACGUUCCUAAGCGCAGAACAGCCCUAUAAGAACGCCGCUCGGUGC	0.0847
AAAGCCCAAGUAUUUUGAAAAAAUUCAAACAGAUUUGACAAGGGUAGCCAGCUUGGAGUCUAGCAACUUGCCAAUGUGUUUACCAAUCUGGGGGCUUGUUUUUCUUUUCUUCUUUCAAAU	0.369
UAAGUCCUGUGCCAGCACUUCGCUCAUAAAGUUUUAAAUUCUGGACCAAUAGUGUUUGUUUCCUGAUUAUUGUAUCCAAUACUUUAUCUAGUAUGUAACUCACUCUUCUGGAUAAAUAAA	2.59
AAAGUGAUGACUAUGUUUGUCCAACGACAGGUGUUUGCGGAGAGCAAAGAUGAGAUUGCGUUAGUCCUCUAUGGCACAGAUGGCACUGAUAAUGCCCUUGCUGGCAAGGAUCAGUAUCAG	0.242
GGCCUGGGACCGUCCUGGGCUAGUACAAAUAGCGGCAGUGGAGGCUCGAGAGGAAAGUUUGUUAGUGGAGGCAGUGGUAGAGGCCGUAUGUACGCUCCUUUACACGAAUAGAUGUGUUCU	0.476
AAAGAGAAUGGAGAAGUAAAGAUUUUACUGAAAAGUGGGAAGGAGAAACCAAAAACAAAUAUAGAAGACUUACAAAUUAAAAAAGUAAAGAAGAAAAAGAAAAAGAAACACAAAGAGAAU	19.6
ACCUCCCCCUCCCGCCUGCUUUUUGAACCGCUUUUUGGAAAGUUUUUGGCGUUUCUUUUUUUUAGAAAUACAAAGUGAUUACAGUUUCCCCCGCAAGGGUCUAUCGAAGGGCUUGACGGA	0.562

Set 2
Target: Ras GTPase-activating protein-binding protein 1, C-terminal RGG region (G3BP1, Homo sapiens, UniProt Q13283)
Sequence of UniProt Q13283 (whole entry, looked up): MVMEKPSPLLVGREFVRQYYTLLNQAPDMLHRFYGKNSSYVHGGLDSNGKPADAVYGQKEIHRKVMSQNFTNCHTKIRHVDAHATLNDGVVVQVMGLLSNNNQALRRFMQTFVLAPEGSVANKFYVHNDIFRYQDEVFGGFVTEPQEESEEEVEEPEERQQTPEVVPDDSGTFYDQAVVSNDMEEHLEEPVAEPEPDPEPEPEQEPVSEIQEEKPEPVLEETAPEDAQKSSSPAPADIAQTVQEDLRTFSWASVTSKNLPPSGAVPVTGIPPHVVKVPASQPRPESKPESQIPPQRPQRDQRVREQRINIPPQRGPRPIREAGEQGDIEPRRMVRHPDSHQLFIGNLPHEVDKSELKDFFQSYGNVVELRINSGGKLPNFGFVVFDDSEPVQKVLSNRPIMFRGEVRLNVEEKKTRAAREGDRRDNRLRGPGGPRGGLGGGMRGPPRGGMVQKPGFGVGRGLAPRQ
Technique: RNA Bind-n-Seq
Form: RNA
Matrix: in vitro
Concentration: 1 µM
Setting: whole 134-nt RNA, ends assumed
Added: 150 mM KCl
Relative to: input library
Reading: higher = stronger binding
Constant ends, left off below: GGGAGUUCUACAGUCCGACGAUC … UGGAAUUCUCGGGUGUCAAGG
Sequence	log2 enrichment
UCCUCAAGUCCUGUGCUACACAUCGUAUGUACCGAAUCGGAGGAGGAAAGGAAAGUAUUAUGUUACGCCGUUCGGAUCUGCACUUCCAGC	-1.5
UAAGUUUAGAGGAGGAUCUGAUGGAUAUGGCAGUGGACGUGGAUUUGGGGAUGGCUAUAAUGGGUAUGGAGGAGGACCUGGAGGUGGCAA	0.704
CACAGACAACACGCACCCAAACAGACACAGAGGGAAGGGGUUGGGAUGGGGACAGGGUGCACAGCAGGGCGGGGUAGGACCCCAGCCCCU	-0.318
UGUCUUUCCUGGUGACUAGGAUGUCGUCGGAGGAGGACAAGAGCGUGGAGCAGCCGCAGCCGCCGCCACCACCCCCCGAGGAGCCUGGAG	-1.15
UCCUGUGCUACACAUCGUAUGUACCGAAUCGGGGUUUUUGGGGUUUGGGGUUUUUGGGGAAAGUAUUAUGUUACGCCGUUCGGAUCUGCA	3.1
AGUCCUGUGCUACACAUCGUAUGUACCGAAUCGGGAAAAAAAGGGUUUUUGGGUGGGAAAGUAUUAUGUUACGCCGUUCGGAUCUGCACU	0.372
ACCAUGCAGGUGGGCAUCUUUGGGAAGUGGGGCAAGGGGUGGAUAGGGAGGGGGGUAACACUUUGGGAACAGGUGGUCCCAGGUCGUUUC	-1.07
ACCAUGCAGGUGGGCAUCUUUGGGAAGUGGGGCAAGGGGGGGAUAGGGAGGGGGGUAACACUUUGGGAACAGGUGGUACCAGGUCGUUUC	2.69
UCAAGUCCUGUGCUACACAUCGUAUGUACCGAAUCGGGGCCGGGCCGGCCGGGGAAAGUAUUAUGUUACGCCGUUCGGAUCUGCACUUCC	-1.07
CAAGUCCUGUGCUACACAUCGUAUGUACCGAAUCGGAAAGGUUUUUGGUUUUUGGAAAGUAUUAUGUUACGCCGUUCGGAUCUGCACUUC	-1.86
CUCAAGUCCUGUGCUACACAUCGUAUGUACCGAAUCGGAGGUUUUUGGUUUGGAAAGUAUUAUGUUACGCCGUUCGGAUCUGCACUUCCA	-1.48
CAAGUCCUGUGCUACACAUCGUAUGUACCGAAUCGGAGGAAAAAGGUUUUUUUGGAAAGUAUUAUGUUACGCCGUUCGGAUCUGCACUUC	-1.82
GCUGUGACCCCAACGCCGGUGCCCGUGGUCGGGAGCCAGAUGACCAGACAAGCCCGGCGCCUCUACGUGGGCAACAUCCCCUUUGGCAUC	-0.932
UCAAGUCCUGUGCUACACAUCGUAUGUACCGAAUCGGGAAAAAGGGAGGGUGGGAAAGUAUUAUGUUACGCCGUUCGGAUCUGCACUUCC	1.52

Set 3
Target: Histone acetyltransferase KAT6A, both winged helices, GST fusion (KAT6A, Homo sapiens, UniProt Q92794, residues 1-181)
Technique: protein binding microarray
Form: double-stranded DNA, one strand shown
Matrix: in vitro
Concentration: not given
Setting: 8-mer, flanks averaged, mean of 2 arrays, mostly near background
Relative to: not given
Reading: higher = stronger binding
Residues (chain): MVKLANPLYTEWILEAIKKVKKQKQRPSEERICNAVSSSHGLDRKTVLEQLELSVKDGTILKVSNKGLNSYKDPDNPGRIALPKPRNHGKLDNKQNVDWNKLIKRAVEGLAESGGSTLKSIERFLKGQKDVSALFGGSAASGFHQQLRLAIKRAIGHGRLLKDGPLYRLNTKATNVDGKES
Sequence	E-score
ACTAATAT	-0.145
AATAAGCT	-0.0277
CACGCCGA	0.209
CACAGCCC	-0.0839
TCCCCACA	-0.198
CCGTGACC	0.208
AGAACACA	-0.237
TAGTGTGA	-0.146
ACCGCTGG	0.0932
CCAGGATC	-0.136
GCACCCTA	-0.079
CTATGCCA	-0.199
CGGTGTAG	0.121
GGGGCGGA	0.142
CGGTCCAA	0.019
ATGAATGG	-0.219
ATTGGCCC	-0.137
CTCGGCGC	0.32

Set 4
Target: Interferon regulatory factor 7, full length, phosphomimetic (IRF7, Homo sapiens, UniProt Q92985, residues 1-503, S471D/S472D/S475D/S476D/S477D/S483D/S484D/S487D)
Sequence of UniProt Q92985 (whole entry, unmodified, looked up): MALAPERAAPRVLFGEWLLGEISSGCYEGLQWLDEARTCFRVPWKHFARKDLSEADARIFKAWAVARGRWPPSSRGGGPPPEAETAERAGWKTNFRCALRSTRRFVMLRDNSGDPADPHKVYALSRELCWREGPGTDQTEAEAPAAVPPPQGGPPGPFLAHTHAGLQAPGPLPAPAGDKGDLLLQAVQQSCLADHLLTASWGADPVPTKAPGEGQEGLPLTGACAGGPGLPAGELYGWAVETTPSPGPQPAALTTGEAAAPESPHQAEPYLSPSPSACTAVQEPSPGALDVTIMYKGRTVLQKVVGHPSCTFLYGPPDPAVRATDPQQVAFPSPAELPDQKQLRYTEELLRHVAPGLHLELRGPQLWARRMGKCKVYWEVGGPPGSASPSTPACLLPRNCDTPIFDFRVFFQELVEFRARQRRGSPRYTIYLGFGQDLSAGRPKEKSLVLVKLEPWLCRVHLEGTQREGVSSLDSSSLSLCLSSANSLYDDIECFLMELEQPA
Technique: protein-binding microarray
Form: double-stranded DNA, one strand shown
Matrix: in vitro
Concentration: 2200 nM top
Setting: 60-bp whole probe
Added: salmon DNA 0.4 mg/ml
Relative to: random background probes
Reading: higher = stronger binding
Constant ends, left off below: GCCTAGCAC … GTCTTGATTCGCTTGACGCTGCTG
Sequence	fitted relative affinity
GACGAACTGAGTTTCGAGAGGTGCTAG	1.14 z-score
AGTTCTCTAGAAATTCCCACGGTGCTA	0.488 z-score
TTAGGTATCGACTCTCGGTTAGTGCTA	0.789 z-score
TCAGGTATCGGGACTGGGTTAGTGCTA	0.0297 z-score
TTAGATCTGGGGTATCGATTAGTGCTA	0.119 z-score
TCACATTTTTTTTTTCTACTGTGCTAG	2.19 z-score
TTAGGTCTCCTACTGGTTTAGTGCTAG	0.547 z-score
GACCGTTTCGGTCTCGGGACGTGCTAG	4.72 z-score
AGCAGTTGGACCTCTCAGCCAGTGCTA	-0.657 z-score
TCATATTAAAATTTAATACTGTGCTAG	-0.242 z-score
GACGGACTGGGTATCGGTACGTGCTAG	-0.363 z-score
TTAGGACTGGGGACTGGGTTCGTGCTA	-0.835 z-score
GACGATTTCAGTATGGAGACGTGCTAG	0.637 z-score
TTAGAACTGAGATTCGATTAGTGCTAG	0.22 z-score
TTAGAACTGAGACTCGATTAGTGCTAG	-0.333 z-score
TTAGGACTGCTACTGATTTAGTGCTAG	-0.175 z-score
TTAGGTTTCCTTTTCCTTTTGTGCTAG	8.26 z-score
TTAGATTTCGTGACTGGATTAGTGCTA	0.495 z-score

Set 5
Target: UBE2S UBC core domain (UniProt Q16763)
Sequence of UniProt Q16763 (whole entry, looked up): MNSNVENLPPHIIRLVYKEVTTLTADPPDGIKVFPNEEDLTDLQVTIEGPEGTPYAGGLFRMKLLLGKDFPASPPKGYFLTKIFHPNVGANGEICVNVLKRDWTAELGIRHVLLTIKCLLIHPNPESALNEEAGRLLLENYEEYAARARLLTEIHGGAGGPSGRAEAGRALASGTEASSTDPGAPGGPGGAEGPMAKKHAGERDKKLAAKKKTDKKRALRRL
Technique: yeast two-hybrid
Matrix: yeast
Setting: mostly zero background
Relative to: not given
Reading: higher = stronger interaction
B1: RBCK1 RING domain (UniProt Q9BYM8); chain SLVLNTEPAECPVCYSVLAPGEAVVLRECLHTFCRECLQGTIRNSQEAEVSCPFIDNTYSCSGKLLEREIK
B2: MDM4 RING domain (UniProt O15151); chain MEDCQNLLKPCSLCEKRPRDGNIIHGRTGHLVTCFHCARRLKKAGASCPICKKEIQLVIKVF
B3: MAP3K1 RING domain (UniProt Q13233); chain NSIKDEEEQMCPICLLGMLDEESLTVCEDGCRNKLHHHCMSIWAEECRRNREPLICPLCRSKWRSHDFYS
B4: DZIP3 RING domain (UniProt Q86Y13); chain PDEEEEEEEPCVICHENLSPENLSVLPCAHKFHAQCIRPWLMQQGTCPTCRLHVLLPEEFP
B5: SYTL4 RING domain (UniProt Q96C24); chain RGSQHYSDRTCARCQESLGRLSPKTNTCRGCNHLVCRDCRIQESNGTWRCKVCAKEIELKKAT
Molecule	lacZ reporter activity
NLSELTPYILCSICKGYLIDATTITECLHTFCKSCIVRHFYYSNRCPKCNIVVHQTQPLY (PCGF6 RING domain (UniProt Q9BYE7))	0
FDGDVDPDLKCALCHKVLEDPLTTPCGHVFCAGCVLPWVVQEGSCPARCRGRLSAKELN (PDZRN3 RING domain (UniProt Q9UPQ7))	0
B1 (RBCK1 RING domain)	0
GSDDEEIPFKCFICRQSFQNPVVTKCRHYFCESCALQHFRTTPRCYVCDQQTNGVFNPA (RNF113A RING domain (UniProt O15541))	0
B2 (MDM4 RING domain)	0
B3 (MAP3K1 RING domain)	0
GSRLQEINDVCAICYHEFTTSARITPCNHYFHALCLRKWLYIQDTCPMCHQKVYIEDDIK (RNF139 RING domain (UniProt Q8WU17))	0
KETIKKTTKPCPRCHVPVEKNGGCMHMKCPQPQCRLEWCWNCGCEWNRVCMG (PRKN RING domain (UniProt O60260))	0
B4 (DZIP3 RING domain)	0
B5 (SYTL4 RING domain)	0
PEDRESLKSACVVCLSSFKSCVFLECGHVCSCTECYRALPEPKKCPICRQAITRVIPLY (MUL1 RING domain (UniProt Q969V5))	0

For quick reference, copied from above (set 4):
Sequence	fitted relative affinity
TTAGAACTGAGATTCGATTAGTGCTAG	0.22 z-score
TTAGGTCTCCTACTGGTTTAGTGCTAG	0.547 z-score
TTAGATTTCGTGACTGGATTAGTGCTA	0.495 z-score
TTAGGTTTCCTTTTCCTTTTGTGCTAG	8.26 z-score
GACGGACTGGGTATCGGTACGTGCTAG	-0.363 z-score
AGTTCTCTAGAAATTCCCACGGTGCTA	0.488 z-score
TTAGGACTGCTACTGATTTAGTGCTAG	-0.175 z-score
GACCGTTTCGGTCTCGGGACGTGCTAG	4.72 z-score
TTAGGTATCGACTCTCGGTTAGTGCTA	0.789 z-score
GACGAACTGAGTTTCGAGAGGTGCTAG	1.14 z-score
GACGATTTCAGTATGGAGACGTGCTAG	0.637 z-score
